Measurements of several laboratories.
Numbers after ± are the reported error.

N#CC1(c2ccc3c(N)ncnn23)OC(COP(=O)(O)OP(=O)(O)OP(=O)(O)O)C(O)C1O (stereo not drawn)
AUC(0-t) (LC-MS/MS; CD-1 mouse, lung; oral, 100 mg/kg of remdesivir): 355 nmol·h/kg

COc1cc(NC(=O)C(=O)c2c(C)n(Cc3ccc(Cl)cc3)c3ccc(C)cc23)ccn1
CL/F (female cynomolgus monkey, plasma; oral, 10 mg/kg): 49.1 mL/min/kg

CC[C@H](C)[C@H](NC(=O)[C@H](Cc1ccccc1)NC(=O)[C@H](CC(=O)O)NC(=O)[C@H](CCCN)NC(=O)[C@H](Cc1ccccc1)NC(=O)[C@H](Cc1ccccc1)NC(=O)[C@H](CCCCN)NC(=O)[C@H](CCN)NC(=O)[C@H](CC(C)C)NC(=O)[C@H](CCCNC(=N)N)NC(=O)[C@H](CCSC)NC(=O)[C@H](C)N)C(=O)N[C@@H](CC(C)C)C(=O)N[C@@H](CCC(N)=O)C(=O)N[C@@H](CCCNC(=N)N)C(=O)N[C@@H](CCCCN)C(=O)N[C@@H](CCCCN)C(=O)O
helicity (circular dichroism; 20% TFE in PBS; 200 µM, pH 7.4, 25 °C): 15.2%

COC(=O)C[C@H](NC(=O)[C@H](C)NC(=O)[C@@H](NC(=O)[C@H](CC(=O)OC)NC(=O)[C@@H](NC(=O)c1ccc2ccccc2n1)C(C)C)C(C)C)C(=O)COc1c(F)cccc1F
body weight (rat pups; 1 mg/kg, 14 d): 62 ± 2.5 g

CCN(Cc1ccccc1)C(=O)CCc1nc(CN2CCN(C(=O)Cc3ccc(OC)c(OC)c3)CC2)no1
concentration (LC-MS; rat, DRG; intravenous, 1 mg/kg, 15 min): 140 ± 10 ng/g

O=C(CN1CCN(c2cc3c(cc2F)c(=O)c(C(=O)O)cn3C2CC2)CC1)Nc1ccc(Cl)cc1
MRT (mouse, plasma; intravenous, 1.25 mg/kg): 8.2 h

CN(C)C(CNC(=O)Nc1cc(C(F)(F)F)ccc1N1CCOCC1)c1ccncc1 (stereo not drawn)
serum chloride (mouse, serum; intraperitoneal, 120 mg/kg single dose): 110 mmol/L

C[C@H]1C(=O)O[C@@H]2O[C@@]3(C)CC[C@@H]4[C@@]2(OO3)[C@H]1CC[C@]4(C)O
free AUC(0-t) (healthy Chinese human; oral, dose not given, day 2): 0.628 ± 0.218 µM·h

CC(C)[C@H](NC(=O)CNC(=O)[C@H](CCC(N)=O)NC(=O)[C@H](C)N)C(=O)O
subjects with moderate adverse events (human; 30 mg/kg single dose): 0%

COC(=O)C=CCCC(NC(=O)c1ccncc1C(=O)O)C(=O)NC(C(=O)N1CC(=O)CC1C(=O)NC(C(=O)NC(C(N)=O)C1CCCCC1)C1CCCCC1)C(C)(C)C (stereo not drawn)
plasma concentration (New Zealand White rabbits, male, plasma; intravenous bolus plus infusion, dose not given, 15 min, at initiation of stasis): 11.8 ± 1.2 µM

O=C(O)CC[C@H](NC(=O)O[C@@H](CCCCNC(=O)c1ccc([18F])cc1)C(=O)O)C(=O)O
tissue uptake (mouse, PC-3 PIP/flu xenografts, muscle; 60 min): 0.27 ± 0.12 %ID/g

CC[C@H](C)[C@@H]1NC(=O)[C@H](Cc2ccc(O)cc2)NC(=O)[C@@H](N)CSCSC[C@@H](C(=O)N2CCC[C@H]2C(=O)N[C@@H](CC(C)C)C(=O)NCC(N)=O)NC(=O)[C@H](CC(N)=O)NC(=O)[C@H](CCC(N)=O)NC1=O
half-life (phosphate buffer; 0.1 mg/mL, pH 2.0, 55 °C): 86.4 h

O=c1cc(-c2ccccc2)oc2c(Br)c(O)c(O)c(O)c12
MRT(0-inf) (C57BL/6 mouse, plasma; intravenous, 10 mg/kg, single dose): 2 h

CCCCCCCCCCCCCCCC(=O)NCCCCCCNC(=O)C(CCCCNC(=O)CCN1C(=O)CC(SC[C@H](NC(=O)[C@H](CCCNC(=N)N)NC(=O)CNC(=O)[C@H](CCCCN)NC(=O)[C@@H](NC(=O)[C@H](CC(C)C)NC(=O)[C@H](Cc2c[nH]c3ccccc23)NC(=O)[C@H](C)NC(=O)[C@@H](NC(=O)[C@H](Cc2ccccc2)NC(=O)[C@H](CCC(=O)O)NC(=O)[C@H](CCCCN)NC(=O)[C@H](C)NC(=O)[C@H](C)NC(=O)[C@H](CCC(N)=O)NC(=O)CNC(=O)[C@H](CCC(=O)O)NC(=O)[C@H](CC(C)C)NC(=O)[C@H](Cc2ccc(O)cc2)NC(=O)[C@H](CO)NC(=O)[C@H](CO)NC(=O)[C@@H](NC(=O)[C@H](CC(=O)O)NC(=O)[C@H](CO)NC(=O)[C@@H](NC(=O)[C@H](Cc2ccccc2)NC(=O)[C@@H](NC(=O)CNC(=O)[C@H](CCC(=O)O)NC(=O)CNC(=O)[C@@H](N)Cc2c[nH]cn2)[C@@H](C)O)[C@@H](C)O)C(C)C)[C@@H](C)CC)C(C)C)C(N)=O)C1=O)NC(=O)CCN1C(=O)CC(SC[C@H](NC(=O)[C@H](CCCNC(=N)N)NC(=O)CNC(=O)[C@H](CCCCN)NC(=O)[C@@H](NC(=O)[C@H](CC(C)C)NC(=O)[C@H](Cc2c[nH]c3ccccc23)NC(=O)[C@H](C)NC(=O)[C@@H](NC(=O)[C@H](Cc2ccccc2)NC(=O)[C@H](CCC(=O)O)NC(=O)[C@H](CCCCN)NC(=O)[C@H](C)NC(=O)[C@H](C)NC(=O)[C@H](CCC(N)=O)NC(=O)CNC(=O)[C@H](CCC(=O)O)NC(=O)[C@H](CC(C)C)NC(=O)[C@H](Cc2ccc(O)cc2)NC(=O)[C@H](CO)NC(=O)[C@H](CO)NC(=O)[C@@H](NC(=O)[C@H](CC(=O)O)NC(=O)[C@H](CO)NC(=O)[C@@H](NC(=O)[C@H](Cc2ccccc2)NC(=O)[C@@H](NC(=O)CNC(=O)[C@H](CCC(=O)O)NC(=O)CNC(=O)[C@@H](N)Cc2c[nH]cn2)[C@@H](C)O)[C@@H](C)O)C(C)C)[C@@H](C)CC)C(C)C)C(N)=O)C1=O (stereo partly drawn)
liver and kidney toxicity markers (refers to: ALT, AST, BUN, creatinine; db/db mouse, serum; subcutaneous, 500 nmol/kg twice daily, 7 days; baseline: control): no effect

Cc1ccc(/C=C/C(=O)O)cc1-c1cc2c(cc1C)C(C)(C)CCC2(C)C
HDL level (Sprague-Dawley rat, male, plasma; oral, 100 mg/kg, 9 h, sesame oil vehicle): 56 ± 11.6 mg/dL

C[C@H]1C(OC(=O)C(C)(C)C)O[C@@H]2O[C@@]3(C)CC[C@H]4[C@H](C)CCC1[C@@]24OO3 (stereo partly drawn)
dead embryos (Tg(fli1:EGFP) zebrafish embryos; 25 µg/mL, up to 48 hpf): 9 count

COc1ccc(F)cc1S(=O)(=O)Nc1cnc2c(c1)C(=O)NCCO2
Vd (male cynomolgus monkey, plasma; intravenous, 0.3 mg/kg, single dose): 0.221 L/kg

CC[C@H](C)C(=O)N1CCC(NC(=O)Nc2ccc(OC(F)(F)F)c(F)c2)CC1
participants with any Severe TEAE (healthy volunteers, both sexes; oral, 8 mg single dose, fed state): 0%

COc1ccc(C)cc1NC(=O)OC1CC2CCCC(C1)N2Cc1ccc(CC[18F])cc1 (stereo not drawn)
tumour to tissue ratio (BALB/c mice, EMT6 tumour; 1 h; baseline: tumour over lung): 0.42

CN[C@](C)(C[18F])C(=O)O
tissue uptake (SCID mouse U87 xenograft, brain; 30 min, post injection): 0.4 ± 0.03 %ID/g

CCCC[C@H]1C(=O)N(C)[C@@H](CCCC)C(=O)N[C@@H](CCCNC(=O)CN2CCN(CC(=O)O)CCN(CC(=O)O)CCN(CC(=O)O)CC2)C(=O)N[C@H](C(=O)NCC(N)=O)CSCC(=O)N[C@@H](Cc2ccc(O)cc2)C(=O)N(C)[C@@H](C)C(=O)N[C@@H](CC(N)=O)C(=O)N2CCC[C@H]2C(=O)N[C@@H](Cc2c[nH]cn2)C(=O)N[C@@H](CC(C)C)C(=O)N(C)CC(=O)N[C@@H](Cc2c[nH]c3ccccc23)C(=O)N[C@@H](CO)C(=O)N[C@@H](Cc2c[nH]c3ccccc23)C(=O)N1C [gallium-68 labelled]
tumour uptake (static PET; NOD/SCID mice, CHO-hPD-L1 xenograft, CHO-hPD-L1 tumour; intravenous, 1 h post injection, after two PBS treatments): 6 ± 1.15 %ID/g

Some of these lines once more:
CC[C@H](C)[C@@H]1NC(=O)[C@H](Cc2ccc(O)cc2)NC(=O)[C@@H](N)CSCSC[C@@H](C(=O)N2CCC[C@H]2C(=O)N[C@@H](CC(C)C)C(=O)NCC(N)=O)NC(=O)[C@H](CC(N)=O)NC(=O)[C@H](CCC(N)=O)NC1=O
half-life (phosphate buffer; 0.1 mg/mL, pH 2.0, 55 °C): 86.4 h

O=c1cc(-c2ccccc2)oc2c(Br)c(O)c(O)c(O)c12
MRT(0-inf) (C57BL/6 mouse, plasma; intravenous, 10 mg/kg, single dose): 2 h
